Measured values from different studies.
Each numbered part is a random draw from the data of one study; scales do not carry over between parts.
Sequence of UniProt Q04912 (whole entry, looked up): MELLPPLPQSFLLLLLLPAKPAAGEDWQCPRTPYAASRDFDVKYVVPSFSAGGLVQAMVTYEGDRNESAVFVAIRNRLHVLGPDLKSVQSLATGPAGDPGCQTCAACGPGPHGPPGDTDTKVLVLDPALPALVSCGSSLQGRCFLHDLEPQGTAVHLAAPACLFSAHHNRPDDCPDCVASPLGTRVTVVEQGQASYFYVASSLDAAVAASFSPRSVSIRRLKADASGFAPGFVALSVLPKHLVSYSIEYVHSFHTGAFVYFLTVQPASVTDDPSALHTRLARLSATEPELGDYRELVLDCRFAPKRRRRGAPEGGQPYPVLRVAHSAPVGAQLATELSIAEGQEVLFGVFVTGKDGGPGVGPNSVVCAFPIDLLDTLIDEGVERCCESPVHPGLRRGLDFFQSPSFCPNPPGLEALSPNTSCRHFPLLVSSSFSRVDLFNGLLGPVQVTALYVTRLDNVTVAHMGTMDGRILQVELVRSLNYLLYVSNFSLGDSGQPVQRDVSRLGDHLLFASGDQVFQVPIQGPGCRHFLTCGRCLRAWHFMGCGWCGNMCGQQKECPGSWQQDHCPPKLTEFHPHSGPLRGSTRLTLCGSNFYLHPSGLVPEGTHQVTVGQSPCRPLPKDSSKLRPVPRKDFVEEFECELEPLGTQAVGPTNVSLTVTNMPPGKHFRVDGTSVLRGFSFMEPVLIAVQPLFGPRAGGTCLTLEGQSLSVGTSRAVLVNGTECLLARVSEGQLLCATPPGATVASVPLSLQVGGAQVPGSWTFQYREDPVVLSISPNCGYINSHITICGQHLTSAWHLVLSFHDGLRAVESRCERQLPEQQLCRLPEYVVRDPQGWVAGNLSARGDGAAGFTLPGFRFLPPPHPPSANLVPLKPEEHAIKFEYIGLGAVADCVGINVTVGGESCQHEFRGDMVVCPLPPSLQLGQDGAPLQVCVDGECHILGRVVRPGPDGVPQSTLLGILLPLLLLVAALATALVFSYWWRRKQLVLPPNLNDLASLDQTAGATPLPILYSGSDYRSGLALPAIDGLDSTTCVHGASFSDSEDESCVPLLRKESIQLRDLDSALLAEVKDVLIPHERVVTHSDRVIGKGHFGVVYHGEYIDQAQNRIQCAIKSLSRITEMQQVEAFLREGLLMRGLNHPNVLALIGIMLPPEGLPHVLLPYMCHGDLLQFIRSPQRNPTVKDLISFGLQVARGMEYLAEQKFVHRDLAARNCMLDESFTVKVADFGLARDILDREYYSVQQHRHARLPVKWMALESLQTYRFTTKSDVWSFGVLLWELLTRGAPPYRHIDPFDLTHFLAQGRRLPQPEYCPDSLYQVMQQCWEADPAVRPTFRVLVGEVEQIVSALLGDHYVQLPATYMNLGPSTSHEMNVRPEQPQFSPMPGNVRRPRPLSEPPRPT
Sequence of UniProt Q9P1W9 (whole entry, looked up): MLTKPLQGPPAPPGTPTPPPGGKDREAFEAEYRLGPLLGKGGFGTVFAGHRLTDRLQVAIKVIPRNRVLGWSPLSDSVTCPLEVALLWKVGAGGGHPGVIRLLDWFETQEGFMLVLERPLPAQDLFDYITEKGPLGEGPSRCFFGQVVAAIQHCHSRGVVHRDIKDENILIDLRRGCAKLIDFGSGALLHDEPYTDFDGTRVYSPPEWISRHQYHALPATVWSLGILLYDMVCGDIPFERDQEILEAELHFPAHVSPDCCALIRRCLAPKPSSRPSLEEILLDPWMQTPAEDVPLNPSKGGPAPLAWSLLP
Sequence of UniProt Q8IY84 (whole entry, looked up): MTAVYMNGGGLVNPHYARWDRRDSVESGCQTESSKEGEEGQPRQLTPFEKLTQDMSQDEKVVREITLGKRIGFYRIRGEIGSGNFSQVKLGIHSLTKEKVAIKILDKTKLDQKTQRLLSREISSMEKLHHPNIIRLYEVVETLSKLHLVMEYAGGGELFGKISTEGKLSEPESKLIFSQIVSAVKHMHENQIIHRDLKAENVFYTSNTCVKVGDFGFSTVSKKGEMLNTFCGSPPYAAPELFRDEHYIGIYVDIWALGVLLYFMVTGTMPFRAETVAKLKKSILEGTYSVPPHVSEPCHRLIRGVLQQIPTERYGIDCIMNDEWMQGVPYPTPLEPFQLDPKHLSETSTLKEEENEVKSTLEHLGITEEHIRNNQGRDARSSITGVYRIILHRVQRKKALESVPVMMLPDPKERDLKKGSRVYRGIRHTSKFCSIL
Sequence of UniProt Q9P289 (whole entry, looked up): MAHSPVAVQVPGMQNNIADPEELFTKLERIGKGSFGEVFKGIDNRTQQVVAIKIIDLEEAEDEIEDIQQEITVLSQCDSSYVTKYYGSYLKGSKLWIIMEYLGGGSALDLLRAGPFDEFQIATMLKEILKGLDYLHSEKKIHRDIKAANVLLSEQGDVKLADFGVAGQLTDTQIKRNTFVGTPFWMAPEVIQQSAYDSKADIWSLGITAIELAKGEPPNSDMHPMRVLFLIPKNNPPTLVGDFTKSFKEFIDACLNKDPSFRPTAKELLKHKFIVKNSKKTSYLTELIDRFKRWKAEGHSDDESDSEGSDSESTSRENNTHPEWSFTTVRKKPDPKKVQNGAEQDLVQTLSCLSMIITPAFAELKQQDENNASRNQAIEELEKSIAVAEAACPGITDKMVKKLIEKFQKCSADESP
Sequence of UniProt O95819 (whole entry, looked up): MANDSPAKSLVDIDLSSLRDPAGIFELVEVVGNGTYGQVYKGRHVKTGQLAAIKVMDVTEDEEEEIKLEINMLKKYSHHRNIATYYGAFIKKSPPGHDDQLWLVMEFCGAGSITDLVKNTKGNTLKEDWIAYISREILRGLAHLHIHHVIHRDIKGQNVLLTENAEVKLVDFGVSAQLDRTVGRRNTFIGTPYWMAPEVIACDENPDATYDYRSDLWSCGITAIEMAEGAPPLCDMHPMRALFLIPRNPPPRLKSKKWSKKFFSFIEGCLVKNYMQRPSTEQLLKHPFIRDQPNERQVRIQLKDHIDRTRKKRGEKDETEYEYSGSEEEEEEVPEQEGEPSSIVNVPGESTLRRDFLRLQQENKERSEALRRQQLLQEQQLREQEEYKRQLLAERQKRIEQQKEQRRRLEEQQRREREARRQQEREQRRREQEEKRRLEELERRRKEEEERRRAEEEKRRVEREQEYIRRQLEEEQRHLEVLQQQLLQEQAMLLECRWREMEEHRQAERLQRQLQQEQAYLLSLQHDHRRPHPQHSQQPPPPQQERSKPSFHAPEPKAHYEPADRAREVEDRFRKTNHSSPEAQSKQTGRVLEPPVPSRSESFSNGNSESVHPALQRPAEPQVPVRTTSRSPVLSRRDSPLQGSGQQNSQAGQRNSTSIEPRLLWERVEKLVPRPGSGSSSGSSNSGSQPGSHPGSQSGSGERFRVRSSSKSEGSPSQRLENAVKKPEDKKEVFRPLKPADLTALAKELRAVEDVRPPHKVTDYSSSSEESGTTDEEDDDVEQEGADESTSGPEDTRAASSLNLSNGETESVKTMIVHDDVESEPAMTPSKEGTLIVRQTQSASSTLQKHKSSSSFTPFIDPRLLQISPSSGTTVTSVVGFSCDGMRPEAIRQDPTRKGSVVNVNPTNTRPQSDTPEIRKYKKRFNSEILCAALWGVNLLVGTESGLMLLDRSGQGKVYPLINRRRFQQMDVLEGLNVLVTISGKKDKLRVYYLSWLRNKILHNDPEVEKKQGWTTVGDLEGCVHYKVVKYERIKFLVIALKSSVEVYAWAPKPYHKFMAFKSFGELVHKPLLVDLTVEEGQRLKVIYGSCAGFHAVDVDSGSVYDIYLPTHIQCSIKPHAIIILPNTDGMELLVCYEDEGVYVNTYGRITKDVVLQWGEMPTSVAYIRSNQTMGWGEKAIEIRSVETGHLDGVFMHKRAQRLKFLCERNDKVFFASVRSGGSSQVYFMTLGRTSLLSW
Sequence of UniProt P06239 (whole entry, looked up): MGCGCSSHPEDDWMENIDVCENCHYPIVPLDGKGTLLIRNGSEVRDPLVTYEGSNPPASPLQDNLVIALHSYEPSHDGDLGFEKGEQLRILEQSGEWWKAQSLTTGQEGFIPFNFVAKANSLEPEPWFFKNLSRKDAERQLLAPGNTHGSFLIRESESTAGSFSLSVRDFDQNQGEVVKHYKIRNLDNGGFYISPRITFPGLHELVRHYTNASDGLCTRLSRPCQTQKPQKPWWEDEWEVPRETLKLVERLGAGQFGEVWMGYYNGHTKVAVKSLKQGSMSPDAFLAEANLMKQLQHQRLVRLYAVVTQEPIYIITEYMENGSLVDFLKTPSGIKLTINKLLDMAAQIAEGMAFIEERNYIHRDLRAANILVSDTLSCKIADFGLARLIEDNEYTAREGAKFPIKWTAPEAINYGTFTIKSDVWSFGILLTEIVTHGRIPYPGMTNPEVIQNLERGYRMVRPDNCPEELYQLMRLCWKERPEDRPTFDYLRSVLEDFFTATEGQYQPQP

Block 1
Target: Serine/threonine-protein kinase PAK 2 (PAK2, Homo sapiens, UniProt Q13177)
Sequence of UniProt Q13177 (whole entry, looked up): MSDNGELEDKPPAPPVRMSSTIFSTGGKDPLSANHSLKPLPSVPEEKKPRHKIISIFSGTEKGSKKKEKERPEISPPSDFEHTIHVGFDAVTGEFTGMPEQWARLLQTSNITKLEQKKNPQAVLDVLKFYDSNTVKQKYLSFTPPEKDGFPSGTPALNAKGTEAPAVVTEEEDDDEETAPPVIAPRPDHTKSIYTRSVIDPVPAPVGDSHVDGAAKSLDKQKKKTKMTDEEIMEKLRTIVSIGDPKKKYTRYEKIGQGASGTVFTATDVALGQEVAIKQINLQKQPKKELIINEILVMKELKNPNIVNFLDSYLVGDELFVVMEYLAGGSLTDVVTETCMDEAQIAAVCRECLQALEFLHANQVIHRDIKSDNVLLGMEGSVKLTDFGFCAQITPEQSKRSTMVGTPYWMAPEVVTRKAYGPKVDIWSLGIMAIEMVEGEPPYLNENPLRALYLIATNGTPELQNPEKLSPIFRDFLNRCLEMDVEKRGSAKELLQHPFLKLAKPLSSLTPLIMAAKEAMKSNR
Effect on: enzyme activity
Action: inhibitor
Concentration: 0.5 µM
Reference: control
SMILES	remaining activity [%]
C[C@@H]1CCN(C(=O)CC#N)C[C@@H]1N(C)c1ncnc2[nH]ccc12	111
Cc1cc2ncc(-c3ccccc3)nc2cc1C	99.3
c1ccc(-c2[nH]ncc2-c2ccnc3ccccc23)nc1	57
CN(C)C[C@H]1CCn2c(c(C3=C(c4cn(C)c5ccccc45)C(=O)NC3=O)c3ccccc32)C1	85.1
Cn1nc2c3c(cccc31)C(=O)c1ccccc1-2	102
CCN(CC)CCNC(=O)c1c(C)[nH]c(/C=C2\C(=O)Nc3ccc(Cl)cc32)c1C	92.7
CCOc1nc(NC(=O)Cc2cc(OC)ccc2OC)cc(N)c1C#N	101
CCN(CC)CCNC(=O)c1c(C)[nH]c(/C=C2\C(=O)Nc3ccc(F)cc32)c1C	98.1
COc1cc2ncnc(Nc3cccc(Cl)c3)c2cc1OC	90.7
Nc1cccc(-c2cc3c(Oc4cccc(O)c4)ncnc3[nH]2)c1	88.9

Block 2
Cell line: Huh-7
Concentration: 10 µM
Time: 24 h
Compound	viability [%]
CN[C@@H]1[C@@H](O)[C@@H](O[C@@H]2[C@@H](O)[C@H](O[C@H]3OC(CN)=CC[C@H]3N)[C@@H](N)C[C@H]2N)OC[C@]1(C)O	99.3
Cc1cccc(C)c1NC(=O)C1CCCCN1C (centres unmarked)	99.9
CCCc1nc2c(C)cc(-c3nc4ccccc4n3C)cc2n1Cc1ccc(-c2ccccc2C(=O)O)cc1	96.4
Cn1c([N+](=O)[O-])cnc1COC(N)=O	98.2
O=c1oc2ccccc2c(O)c1Cc1c(O)c2ccccc2oc1=O	87.9
C=C1CC[C@H](O)C/C1=C/C=C1\CCC[C@]2(C)[C@@H]([C@H](C)/C=C/[C@H](C)C(C)C)CC[C@@H]12	97
O=C(c1ccccc1)c1ccc2n1CCC2C(=O)O (centres unmarked)	99.4
C[C@H]1C[C@H]2[C@@H]3CCC4=CC(=O)C=C[C@]4(C)[C@@]3(F)[C@@H](O)C[C@]2(C)[C@@]1(O)C(=O)CO	101
Nc1ccc(C(=O)Oc2ccccc2)c(O)c1	102
Cc1nc2sccn2c(=O)c1CCN1CCC(=C(c2ccc(F)cc2)c2ccc(F)cc2)CC1	97.1
CC[C@@H]1C(=O)OC[C@@H]1Cc1cncn1C	101
Cn1cnc([N+](=O)[O-])c1Sc1ncnc2nc[nH]c12	98.8
COC(=O)C1=C(C)NC(C)=C(C(=O)OCC(C)C)C1c1ccccc1[N+](=O)[O-] (centres unmarked)	85
CO/N=C(\C(=O)N[C@@H]1C(=O)N2C(C(=O)O)=C(COC(C)=O)CS[C@H]12)c1csc(N)n1	104

Block 3
Structure (SMILES): CN(C)C(=O)Cn1cc(-c2nc([C@@](C)(c3ccc(-c4cnc(N)nc4)cc3)C3CC3)no2)cn1
Effect on: cell-free assay
Technique: competition with immobilised ligand
Concentration: 1 µM
target	remaining binding
NIM1K (Homo sapiens, UniProt Q8IY84)	86%
Tyrosine-protein kinase ABL1, phosphorylated (ABL1, Homo sapiens, UniProt P00519, T315I)	90%
PRKD2 (Homo sapiens, UniProt Q9BZL6)	100%
BTK (Homo sapiens, UniProt Q06187)	73%
STK26 (Homo sapiens, UniProt Q9P289)	97%
TGFBR2 (Homo sapiens, UniProt P37173)	88%
MARK2 (Homo sapiens, UniProt Q7KZI7)	100%
PIK3CG (Homo sapiens, UniProt P48736)	72%
PIK3CA (Homo sapiens, UniProt P42336, C420R)	73%
EPHA3 (Homo sapiens, UniProt P29320)	100%
CDK8 (Homo sapiens, UniProt P49336)	89%
PIM2 (Homo sapiens, UniProt Q9P1W9)	100%
LCK (Homo sapiens, UniProt P06239)	86%
GRK7 (Homo sapiens, UniProt Q8WTQ7)	0%
MAP4K4 (Homo sapiens, UniProt O95819)	90%
TIE1 (Homo sapiens, UniProt P35590)	90%
MST1R (Homo sapiens, UniProt Q04912)	79%
MAST1 (Homo sapiens, UniProt Q9Y2H9)	97%
MAPK14 (Homo sapiens, UniProt Q16539)	90%
EPHA6 (Homo sapiens, UniProt Q9UF33)	100%
Non-receptor tyrosine-protein kinase TYK2, JH2 (TYK2, Homo sapiens, UniProt P29597)	65%
Cyclin-dependent kinase 4, with cyclin D1 (CDK4, Homo sapiens, UniProt P11802)	94%

Block 4
Target: Bromodomain-containing protein 4, BD1 (BRD4, Homo sapiens, UniProt O60885)
Action: binding
Technique: isothermal titration calorimetry
Temperature: 15 °C
SMILES	ΔG
Cc1cnc(Nc2ccc(N3CCN(C)CC3)cc2)nc1Nc1cccc(S(=O)(=O)NC(C)(C)C)c1	-9.1 kcal/mol
Cc1cnc(Nc2ccc(OCCN3CCCC3)cc2)nc1Nc1cccc(S(=O)(=O)NC(C)(C)C)c1	-8.94 kcal/mol
CC[C@@H]1C(=O)N(C)c2cnc(Nc3ccc(C(=O)N[C@H]4CC[C@H](N5CCN(CC6CC6)CC5)CC4)cc3OC)nc2N1C(C)C	-9.35 kcal/mol
CC(C)CCN1c2nc(Nc3cc(F)c(O)c(F)c3)ncc2N(C)C(=O)C1C (centres unmarked)	-7.1 kcal/mol

Some of these lines once more (block 4):
SMILES	ΔG
CC[C@@H]1C(=O)N(C)c2cnc(Nc3ccc(C(=O)N[C@H]4CC[C@H](N5CCN(CC6CC6)CC5)CC4)cc3OC)nc2N1C(C)C	-9.35 kcal/mol
Cc1cnc(Nc2ccc(N3CCN(C)CC3)cc2)nc1Nc1cccc(S(=O)(=O)NC(C)(C)C)c1	-9.1 kcal/mol
CC(C)CCN1c2nc(Nc3cc(F)c(O)c(F)c3)ncc2N(C)C(=O)C1C (centres unmarked)	-7.1 kcal/mol
Cc1cnc(Nc2ccc(OCCN3CCCC3)cc2)nc1Nc1cccc(S(=O)(=O)NC(C)(C)C)c1	-8.94 kcal/mol
